Experimental data of several laboratories.
Compare with care: the assays were run in different laboratories. ± marks the error that the study gave.
gpmI: 2,3-bisphosphoglycerate-independent phosphoglycerate mutase (gpmI, Mycoplasma pneumoniae, UniProt P75167)
Chain of UniProt P75167 (whole entry, looked up): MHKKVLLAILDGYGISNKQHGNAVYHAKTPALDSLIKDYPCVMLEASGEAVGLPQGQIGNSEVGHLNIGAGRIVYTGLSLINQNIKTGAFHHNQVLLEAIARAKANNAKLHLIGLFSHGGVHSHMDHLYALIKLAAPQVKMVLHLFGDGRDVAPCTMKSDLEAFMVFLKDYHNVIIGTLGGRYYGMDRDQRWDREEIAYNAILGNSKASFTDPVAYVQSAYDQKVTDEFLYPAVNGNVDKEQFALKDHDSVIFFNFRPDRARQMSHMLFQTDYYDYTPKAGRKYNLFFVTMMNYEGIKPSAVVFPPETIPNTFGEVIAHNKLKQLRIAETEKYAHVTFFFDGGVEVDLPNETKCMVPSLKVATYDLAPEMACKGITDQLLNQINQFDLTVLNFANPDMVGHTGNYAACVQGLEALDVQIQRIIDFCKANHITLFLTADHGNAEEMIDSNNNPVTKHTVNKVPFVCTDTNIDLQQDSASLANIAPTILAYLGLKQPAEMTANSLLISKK
2,3-bisphosphoglycerate-independent phosphoglycerate mutase: 2,3-bisphosphoglycerate-independent phosphoglycerate mutase (Wuchereria bancrofti, UniProt B1P0R4)
4'-phosphopantetheinyl transferase PptT: 4'-phosphopantetheinyl transferase PptT (Mycobacterium tuberculosis, UniProt O33336)
Chain of UniProt O33336 (whole entry, looked up): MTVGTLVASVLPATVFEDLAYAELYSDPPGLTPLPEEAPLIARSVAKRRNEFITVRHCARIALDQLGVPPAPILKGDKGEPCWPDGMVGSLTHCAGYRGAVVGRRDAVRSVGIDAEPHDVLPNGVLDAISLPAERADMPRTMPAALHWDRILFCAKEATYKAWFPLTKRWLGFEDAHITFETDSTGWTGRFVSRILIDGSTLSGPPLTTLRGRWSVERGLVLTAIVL
Chain of UniProt P21554 (whole entry, unmodified, looked up): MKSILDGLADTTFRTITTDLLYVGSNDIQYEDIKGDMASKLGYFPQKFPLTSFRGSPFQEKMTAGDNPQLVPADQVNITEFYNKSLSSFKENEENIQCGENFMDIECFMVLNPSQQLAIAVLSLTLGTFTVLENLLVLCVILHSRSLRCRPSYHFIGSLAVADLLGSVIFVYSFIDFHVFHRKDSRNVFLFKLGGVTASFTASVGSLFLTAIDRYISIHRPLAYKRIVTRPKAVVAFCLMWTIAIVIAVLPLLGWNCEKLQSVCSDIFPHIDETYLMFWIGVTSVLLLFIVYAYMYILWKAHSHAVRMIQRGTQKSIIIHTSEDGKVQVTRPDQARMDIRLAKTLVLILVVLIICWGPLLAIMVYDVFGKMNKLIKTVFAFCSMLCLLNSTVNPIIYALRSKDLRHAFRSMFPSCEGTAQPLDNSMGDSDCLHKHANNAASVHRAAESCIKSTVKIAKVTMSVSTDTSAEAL
Chain of UniProt P33261 (whole entry, looked up): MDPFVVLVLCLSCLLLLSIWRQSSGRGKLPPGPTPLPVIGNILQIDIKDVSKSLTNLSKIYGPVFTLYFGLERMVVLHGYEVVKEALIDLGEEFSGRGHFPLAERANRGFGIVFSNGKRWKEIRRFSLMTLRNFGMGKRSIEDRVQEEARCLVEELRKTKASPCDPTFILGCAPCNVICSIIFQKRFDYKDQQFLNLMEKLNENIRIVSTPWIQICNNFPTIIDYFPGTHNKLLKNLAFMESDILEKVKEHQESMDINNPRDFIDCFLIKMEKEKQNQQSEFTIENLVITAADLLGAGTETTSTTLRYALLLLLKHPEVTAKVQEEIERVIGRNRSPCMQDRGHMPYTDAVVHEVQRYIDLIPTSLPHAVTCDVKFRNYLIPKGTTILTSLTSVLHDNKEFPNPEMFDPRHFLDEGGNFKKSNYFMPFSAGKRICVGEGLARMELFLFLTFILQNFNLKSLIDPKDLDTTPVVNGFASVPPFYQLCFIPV
Chain of UniProt P41149 (whole entry, looked up): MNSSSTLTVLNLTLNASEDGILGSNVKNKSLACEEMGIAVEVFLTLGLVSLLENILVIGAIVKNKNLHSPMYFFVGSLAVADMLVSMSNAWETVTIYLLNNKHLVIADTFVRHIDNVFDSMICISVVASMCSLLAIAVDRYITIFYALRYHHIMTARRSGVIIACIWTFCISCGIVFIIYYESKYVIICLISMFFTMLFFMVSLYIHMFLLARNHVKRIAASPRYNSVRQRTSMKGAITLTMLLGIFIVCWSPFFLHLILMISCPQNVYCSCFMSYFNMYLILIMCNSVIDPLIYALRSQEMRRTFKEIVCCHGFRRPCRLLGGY

For `CC(C)[C@@H]1NC(=O)[C@H](CO)NC(=O)[C@H](Cc2c[nH]c3ccccc23)NC(=O)[C@H](CCC(=O)O)NC(=O)[C@H](CC(=O)O)NC(=O)[C@H](Cc2ccc(O)cc2)NC(=O)[C@H](Cc2ccc(O)cc2)NC(=O)[C@H](Cc2c[nH]c3ccccc23)NC(=O)[C@H](Cc2c[nH]c3ccccc23)NC(=O)[C@H](CC(=O)O)NC(=O)CNC(=O)[C@H](CO)NC(=O)[C@@H](Cc2ccc(O)cc2)NC(=O)CSC[C@@H](C(N)=O)NC(=O)CNC(=O)[C@H](Cc2ccccc2)NC(=O)[C@H](C)NC1=O`, the AC50 was 25.7 µM (gpmI; biochemical).
`CC(=O)N[C@@H](CCCNC(=N)N)C(=O)N[C@@H](CCCNC(=N)N)C(=O)N[C@@H](C(=O)N1Cc2ccccc2C[C@H]1C(N)=O)[C@H](c1ccccc1)c1c[nH]c2ccccc12` gave an EC50 of 3.2 µM (Melanocortin receptor 5 (Mus musculus, UniProt P41149); cAMP, agonist, AlphaScreen).
For `CC(C)[C@H](N)C(=O)N[C@@H](Cc1ccc(O)cc1)C(=O)N[C@@H](CCCCN)C(=O)N[C@H](C(=O)N[C@@H](CCCCN)C(=O)N[C@H](C(=O)N[C@@H](CCCCN)C(=O)N[C@H](C(=O)N[C@@H](CCCCN)C(=O)N[C@H](C(=O)N[C@@H](CCCCN)C(=O)N[C@H](C(=O)N[C@@H](CCCCN)C(=O)N[C@H](C(=O)N[C@@H](CCCCN)C(=O)N[C@H](C(=O)N[C@@H](CCCCN)C(=O)N[C@H](C(=O)O)[C@@H](C)O)C(C)C)[C@@H](C)O)C(C)C)[C@@H](C)O)C(C)C)[C@@H](C)O)C(C)C`, the kd2 was 0.0028 s⁻¹ (binding, SPR two-state model; rVλ6Wil fibrils; 300 nM).
For `CCCCCn1cc(C(=O)c2cccc3ccccc23)c2ccccc21`, the EC50 was 0.0129 µM (CNR1 (Homo sapiens, UniProt P21554, I267L/L193I/L359V); Gαi1 engagement, agonist, BRET).
`CCCCCc1cc(O)c2c(c1)OC(C)(C)C1CCC(C)=CC21` (single isomer, unassigned; (-)) has a Ki of 4.1 µM (CYP2C19 (Homo sapiens, UniProt P33261); enzyme activity, inhibitor; human, liver microsomes; pH 7.4).
`CC(C)[C@@H]1NC(=O)[C@H](CO)N(C)C(=O)[C@H](Cc2c[nH]c3ccccc23)NC(=O)[C@H](CCC(=O)O)NC(=O)[C@H](CC(=O)O)NC(=O)[C@H](Cc2ccc(O)cc2)N(C)C(=O)[C@H](Cc2ccc(O)cc2)NC(=O)[C@H](Cc2c[nH]c3ccccc23)NC(=O)[C@H](Cc2c[nH]c3ccccc23)NC(=O)[C@H](CC(=O)O)NC(=O)CNC(=O)[C@H](CO)NC(=O)[C@@H](Cc2ccc(O)cc2)NC(=O)CSC[C@@H](C(N)=O)NC(=O)CN(C)C(=O)[C@H](Cc2ccccc2)N(C)C(=O)[C@H](C)NC1=O` gave an AC50 of 0.0245 µM (gpmI; biochemical).
With `O=S(=O)(O)CCOCC1CSSCC(COCCS(=O)(=O)O)SS1` (stereo not drawn) the Kd was 14.5 ± 0.1 µM (Response regulator PhoP (Mycobacterium tuberculosis, UniProt P71814); binding, LSPR).
`C[C@H](NC(=O)[C@H](CCC(N)=O)NC(=O)[C@H](C)NC(=O)[C@H](CCCCN)NC(=O)[C@H](CCC(N)=O)NC(=O)[C@H](C)NC(=O)[C@H](CCCCN)NC(=O)[C@H](CCC(N)=O)NC(=O)[C@H](C)NC(=O)[C@H](CCC(N)=O)NC(=O)[C@H](CCCCN)NC(=O)[C@H](C)NC(=O)[C@H](CCC(N)=O)NC(=O)[C@H](CCCCN)NC(=O)[C@H](C)NC(=O)[C@H](CCC(N)=O)NC(=O)[C@H](C)NC(=O)[C@H](CCCCN)NC(=O)[C@H](CCC(N)=O)NC(=O)[C@H](C)NC(=O)[C@H](CCCCN)NC(=O)[C@H](CO)NC(=O)[C@H](Cc1ccc(O)cc1)NC(=O)CNC(=O)CNC(=O)CN)C(=O)N[C@@H](CCCCN)C(=O)N[C@@H](CCC(N)=O)C(=O)N[C@@H](C)C(=O)N[C@@H](CCCCN)C(=O)N[C@@H](CCC(N)=O)C(=O)O` has a kd2 of 0.0011 s⁻¹ (binding, SPR two-state model; rVλ6Wil fibrils; 300 nM).
The Ki of `CC(=O)N[C@H](Cc1c[nH]cn1)C(=O)N[C@H](CCCCN)C(=O)N[C@H](CCCCN)C(=O)N[C@H](CCCCN)C(=O)N[C@H](CCCCN)C(=O)N[C@H](CCCCN)C(=O)N[C@H](CCCNC(=N)N)C(=O)N[C@H](CC(C)C)C(=O)N1CCC[C@@H]1C(=O)N1CCC[C@@H]1C(=O)N[C@H](CCCNC(=N)N)C(=O)N[C@H](CCCNC(=N)N)C(=O)N[C@H](CCCNC(=N)N)C(=O)N[C@H](CCC(N)=O)C(=O)N[C@H](CCCNC(=N)N)C(=O)N[C@H](CCCNC(=N)N)C(=O)N[C@H](CCCCN)C(=O)N[C@H](CCCCN)C(=O)N[C@H](CCCNC(=N)N)C(=O)NCC(=O)N[C@H](Cc1ccc(O)cc1)C(N)=O` is reported as 9.9 µM (PRKACA (Homo sapiens, UniProt P17612); enzyme activity, inhibitor).
`CC(C)[C@@H]1NC(=O)[C@H](CCCNC(=N)N)NC(=O)[C@H](Cc2ccc(O)cc2)NC(=O)[C@H](CO)NC(=O)[C@H](Cc2ccc(O)cc2)N(C)C(=O)[C@H](CC(N)=O)NC(=O)CNC(=O)[C@H](Cc2ccc(O)cc2)N(C)C(=O)[C@H](Cc2ccccc2)N(C)C(=O)[C@H](CC(=O)O)NC(=O)[C@H](Cc2ccc(O)cc2)NC(=O)[C@H](Cc2ccccc2)N(C)C(=O)[C@H](Cc2ccc(O)cc2)N(C)C(=O)[C@H](Cc2ccc(O)cc2)NC(=O)CSC[C@@H](C(N)=O)NC(=O)[C@@H]2CCCN2C1=O` gave an AC50 of 0.309 µM (2,3-bisphosphoglycerate-independent phosphoglycerate mutase; biochemical).
`Cc1nc(=O)c2cc(CN(C)c3cccc(C(=O)NCCCS(C)(=N)=O)c3)ccc2[nH]1` (stereo not drawn) has an IC50 of 33.9 µM (4'-phosphopantetheinyl transferase PptT; enzyme activity, inhibitor, fluorescence polarization; enzyme 100 nM).
`COc1ccc(C[C@H]2C(=O)N[C@@H](Cc3ccc(O)cc3)C(=O)N3CCC[C@H]3C(=O)NCC(=O)N[C@@H]([C@@H](C)O)C(=O)N[C@@H](C)C(=O)N[C@@H](CCC(N)=O)C(=O)N(C)[C@@H](Cc3ccc(O)cc3)C(=O)N[C@@H]([C@@H](C)O)C(=O)N[C@H](C(N)=O)CSCC(=O)N[C@H](Cc3ccc(O)cc3)C(=O)N[C@@H](Cc3c[nH]c4ccccc34)C(=O)N(C)[C@@H](Cc3ccc(O)cc3)C(=O)N[C@@H](CC(=O)O)C(=O)N(C)[C@@H](CO)C(=O)N(C)[C@@H](Cc3ccc(O)cc3)C(=O)N2C)cc1` has an AC50 of 0.0676 µM (gpmI; biochemical).
For `Cc1nc(=O)c2cc(CN(C)c3cccc(C(=O)N[C@@H](CCC(=O)O)C(=O)O)c3)ccc2[nH]1`, the IC50 was under 0.1 µM (4'-phosphopantetheinyl transferase PptT; enzyme activity, inhibitor, FP).
With `CCCCCn1cc(C(=O)c2ccc3c(c2)CC(C)(C)C3)c2ccccc21` the EC50 was 3.63 µM (CNR1 (Homo sapiens, UniProt P21554); β-arrestin recruitment, agonist, BRET).
`CC(C)[C@@H]1NC(=O)[C@H](CCCNC(=N)N)NC(=O)[C@H](Cc2ccc(O)cc2)NC(=O)[C@H](CO)NC(=O)[C@H](Cc2ccc(O)cc2)NC(=O)[C@H](CC(N)=O)NC(=O)CNC(=O)[C@H](Cc2ccc(O)cc2)NC(=O)[C@H](Cc2ccccc2)NC(=O)[C@H](CC(=O)O)NC(=O)[C@H](Cc2ccc(O)cc2)NC(=O)[C@H](Cc2ccccc2)NC(=O)[C@H](Cc2ccc(O)cc2)NC(=O)[C@H](Cc2ccc(O)cc2)NC(=O)CSC[C@@H](C(N)=O)NC(=O)[C@@H]2CCCN2C1=O` has an AC50 of 16.6 µM (2,3-bisphosphoglycerate-independent phosphoglycerate mutase; biochemical).
With `C#CCN(Cc1ccc2nc(N)nc(N)c2c1)c1ccc(C(=O)N[C@@H](CCC(=O)O)C(=O)O)cc1` the IC50 was over 25 µM (4'-phosphopantetheinyl transferase PptT; enzyme activity, inhibitor, fluorescence polarization; enzyme 100 nM).
`CN1C(=O)[C@H](Cc2ccc(O)cc2)NC(=O)CNC(=O)[C@H](Cc2ccc(O)cc2)NC(=O)[C@H](CCC(=O)O)NC(=O)[C@H](Cc2ccc(O)cc2)N(C)C(=O)[C@H](Cc2ccc(O)cc2)N(C)C(=O)[C@H](CCC(N)=O)NC(=O)[C@H](Cc2c[nH]c3ccccc23)NC(=O)[C@H](Cc2ccc(O)cc2)NC(=O)[C@@H](Cc2ccc(O)cc2)NC(=O)CSC[C@@H](C(N)=O)NC(=O)[C@H](CCCCN)NC(=O)[C@@H]1Cc1ccc(O)cc1` has an AC50 of 0.468 µM (2,3-bisphosphoglycerate-independent phosphoglycerate mutase; biochemical).
`Cc1nc(=O)c2cc(CN(C)c3cccc(C(=O)N[C@@]4(C(=O)O)CCC[C@@H](C(=O)O)C4)c3)ccc2[nH]1` has an IC50 of 0.29 µM (4'-phosphopantetheinyl transferase PptT; enzyme activity, inhibitor, fluorescence polarization; enzyme 100 nM).

Excerpt of the above:
For `CCCCCn1cc(C(=O)c2cccc3ccccc23)c2ccccc21`, the EC50 was 0.0129 µM (CNR1 (Homo sapiens, UniProt P21554, I267L/L193I/L359V); Gαi1 engagement, agonist, BRET).
`C[C@H](NC(=O)[C@H](CCC(N)=O)NC(=O)[C@H](C)NC(=O)[C@H](CCCCN)NC(=O)[C@H](CCC(N)=O)NC(=O)[C@H](C)NC(=O)[C@H](CCCCN)NC(=O)[C@H](CCC(N)=O)NC(=O)[C@H](C)NC(=O)[C@H](CCC(N)=O)NC(=O)[C@H](CCCCN)NC(=O)[C@H](C)NC(=O)[C@H](CCC(N)=O)NC(=O)[C@H](CCCCN)NC(=O)[C@H](C)NC(=O)[C@H](CCC(N)=O)NC(=O)[C@H](C)NC(=O)[C@H](CCCCN)NC(=O)[C@H](CCC(N)=O)NC(=O)[C@H](C)NC(=O)[C@H](CCCCN)NC(=O)[C@H](CO)NC(=O)[C@H](Cc1ccc(O)cc1)NC(=O)CNC(=O)CNC(=O)CN)C(=O)N[C@@H](CCCCN)C(=O)N[C@@H](CCC(N)=O)C(=O)N[C@@H](C)C(=O)N[C@@H](CCCCN)C(=O)N[C@@H](CCC(N)=O)C(=O)O` has a kd2 of 0.0011 s⁻¹ (binding, SPR two-state model; rVλ6Wil fibrils; 300 nM).
`CCCCCc1cc(O)c2c(c1)OC(C)(C)C1CCC(C)=CC21` (single isomer, unassigned; (-)) has a Ki of 4.1 µM (CYP2C19 (Homo sapiens, UniProt P33261); enzyme activity, inhibitor; human, liver microsomes; pH 7.4).
